Measurements pooled from the literature.
± gives the spread as reported.

`COc1c(O[C@@H]2O[C@H](CO)[C@@H](O)[C@H](O)[C@H]2O)c(C)cc2c1C(=O)c1c(O)cccc1C2=O` gave a cell viability of 86.1 ± 4.66% (HepaRG co-cultured with HK-2; MTT; 16.67 µM, 48 h; reference: untreated control).
`C[C@@H](Oc1cc(-c2cnn(C3CCNCC3)c2)cnc1N)c1c(Cl)ccc(F)c1Cl` gave an AUCtau of 3320 ng·h/mL (human patients, plasma; oral, dose not given, cycle 2 day 1, median, together with: avelumab).
`CCc1cc(C(=O)NC)c2nccc(N3CCc4c(cc(Cn5ccnc5)cc4-c4cn(C)nc4C(F)(F)F)C3=O)c2c1` — result for “serum MCH change”: 1.14% (Sprague Dawley rats; oral, 100 mg/kg twice daily, 7 days; reference: vehicle).
`Cc1cc(-c2nccc3c2ccn3CC(=O)Nc2ccc(-c3cnccn3)cn2)ccn1` gave an AUCtau of 1.13 µM·h (human, plasma; oral, 15 mg once daily, day 1, geometric mean).
The AUCtau of `CCc1nc(C(N)=O)c(Nc2ccc(N3CCC(N4CCN(C)CC4)CC3)c(OC)c2)nc1NC1CCOCC1` is reported as 4510 ng·h/mL (Japanese patients, plasma; oral, 80 mg, cycle 1 day 28, multiple doses, median).
With `COC(=O)c1cn(C)c2ccc(-c3cccnc3)cc12` the necrotic cells was 0.54 ± 0.21 (COS-7; 10 µM, 24 h, 0.1% DMSO, unit not given; reference: vehicle control).
With `Cc1noc(C)c1-c1cc(C(O)(c2ccccn2)c2ccccn2)c2nc(C3CC3)[nH]c2c1` the AUCtau was 4660 ng·h/mL (human male, fasted, plasma; oral, 4 mg once daily, cycle 1 day 8).
For `C=CC(=O)Nc1cc(Nc2nccc(Nc3cc(Cl)c(F)cc3C(C)(C)O)n2)c(OC)cc1N1CC[C@@H](N(C)C)C1`, the AUCtau was 6820 ng·h/mL (human patients, plasma; oral, 200 mg daily, cycle 2 day 1, geometric mean).
For `O=C(c1cccnc1-c1ccncc1)N1CCC(O)(Cc2ccccc2)CC1`, the AUCtau was 232 ng·h/mL (healthy Japanese adults, plasma; oral, 100 mg twice daily, day 1).
`CC(C)(C)c1cc(C(C)(C)C)c(NC(=O)c2c[nH]c3ccccc3c2=O)cc1O` gave an AUCtau of 9900 ng·h/mL (human, plasma; standard ETI dose).
The AUCtau of `CCCCCCCOc1ccc(CCC(N)(CO)CO)cc1C(F)(F)F.Cl` is reported as 39.7 ng·h/mL (healthy male humans, plasma; 0.25 mg, day 21, mean).
`COc1cc(O)c2c(c1)C(=O)c1cc(C)cc(O)c1C2=O` gave a cell viability of 95.3 ± 5.75% (HepaRG co-cultured with HK-2; MTT; 16.67 µM, 48 h; reference: untreated control).

For quick reference, copied from above:
`COc1c(O[C@@H]2O[C@H](CO)[C@@H](O)[C@H](O)[C@H]2O)c(C)cc2c1C(=O)c1c(O)cccc1C2=O` gave a cell viability of 86.1 ± 4.66% (HepaRG co-cultured with HK-2; MTT; 16.67 µM, 48 h; reference: untreated control).
`C[C@@H](Oc1cc(-c2cnn(C3CCNCC3)c2)cnc1N)c1c(Cl)ccc(F)c1Cl` gave an AUCtau of 3320 ng·h/mL (human patients, plasma; oral, dose not given, cycle 2 day 1, median, together with: avelumab).
